Assay results pooled from the literature.
“And” joins repeats or separate records; there may be more than shown. ± gives the spread as reported.
Protein AF-9 with DOT1L: Protein AF-9, with DOT1L (Homo sapiens, UniProt P42568)
Chain of UniProt P42568 (whole entry, looked up): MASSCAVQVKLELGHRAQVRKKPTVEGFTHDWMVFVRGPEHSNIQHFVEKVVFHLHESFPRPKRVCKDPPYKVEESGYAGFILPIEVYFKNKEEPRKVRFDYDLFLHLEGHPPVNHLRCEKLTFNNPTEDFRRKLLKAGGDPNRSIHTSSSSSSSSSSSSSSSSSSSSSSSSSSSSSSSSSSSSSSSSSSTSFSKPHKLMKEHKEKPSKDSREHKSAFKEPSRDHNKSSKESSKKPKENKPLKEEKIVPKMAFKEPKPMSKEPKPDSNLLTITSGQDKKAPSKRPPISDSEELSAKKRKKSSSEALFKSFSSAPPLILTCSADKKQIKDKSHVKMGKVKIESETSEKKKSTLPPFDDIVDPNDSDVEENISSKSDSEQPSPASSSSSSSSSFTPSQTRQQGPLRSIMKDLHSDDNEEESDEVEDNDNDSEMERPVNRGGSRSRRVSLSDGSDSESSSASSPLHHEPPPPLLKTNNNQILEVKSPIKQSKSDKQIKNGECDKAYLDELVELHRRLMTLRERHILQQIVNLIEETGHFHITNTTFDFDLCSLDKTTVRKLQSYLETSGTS
BRD9: Bromodomain-containing protein 9 (BRD9, Homo sapiens, UniProt Q9H8M2)
Chain of UniProt Q9H8M2 (whole entry, looked up): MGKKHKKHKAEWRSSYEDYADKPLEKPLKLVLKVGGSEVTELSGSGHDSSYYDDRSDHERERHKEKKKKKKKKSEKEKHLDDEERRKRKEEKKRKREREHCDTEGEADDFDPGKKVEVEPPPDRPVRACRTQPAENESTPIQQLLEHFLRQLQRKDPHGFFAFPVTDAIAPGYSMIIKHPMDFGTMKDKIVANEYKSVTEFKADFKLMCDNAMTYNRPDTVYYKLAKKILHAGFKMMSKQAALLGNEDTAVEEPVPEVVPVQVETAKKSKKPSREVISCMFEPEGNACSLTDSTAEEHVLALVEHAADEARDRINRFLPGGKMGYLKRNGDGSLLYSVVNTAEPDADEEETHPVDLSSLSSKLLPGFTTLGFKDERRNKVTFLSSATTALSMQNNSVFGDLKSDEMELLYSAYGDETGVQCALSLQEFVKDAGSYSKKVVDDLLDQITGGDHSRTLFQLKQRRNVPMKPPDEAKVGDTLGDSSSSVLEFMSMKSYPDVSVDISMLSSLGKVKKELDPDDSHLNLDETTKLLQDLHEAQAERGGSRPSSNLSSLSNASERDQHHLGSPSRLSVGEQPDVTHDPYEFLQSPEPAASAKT
Chain of UniProt Q8IWT6 (whole entry, unmodified, looked up): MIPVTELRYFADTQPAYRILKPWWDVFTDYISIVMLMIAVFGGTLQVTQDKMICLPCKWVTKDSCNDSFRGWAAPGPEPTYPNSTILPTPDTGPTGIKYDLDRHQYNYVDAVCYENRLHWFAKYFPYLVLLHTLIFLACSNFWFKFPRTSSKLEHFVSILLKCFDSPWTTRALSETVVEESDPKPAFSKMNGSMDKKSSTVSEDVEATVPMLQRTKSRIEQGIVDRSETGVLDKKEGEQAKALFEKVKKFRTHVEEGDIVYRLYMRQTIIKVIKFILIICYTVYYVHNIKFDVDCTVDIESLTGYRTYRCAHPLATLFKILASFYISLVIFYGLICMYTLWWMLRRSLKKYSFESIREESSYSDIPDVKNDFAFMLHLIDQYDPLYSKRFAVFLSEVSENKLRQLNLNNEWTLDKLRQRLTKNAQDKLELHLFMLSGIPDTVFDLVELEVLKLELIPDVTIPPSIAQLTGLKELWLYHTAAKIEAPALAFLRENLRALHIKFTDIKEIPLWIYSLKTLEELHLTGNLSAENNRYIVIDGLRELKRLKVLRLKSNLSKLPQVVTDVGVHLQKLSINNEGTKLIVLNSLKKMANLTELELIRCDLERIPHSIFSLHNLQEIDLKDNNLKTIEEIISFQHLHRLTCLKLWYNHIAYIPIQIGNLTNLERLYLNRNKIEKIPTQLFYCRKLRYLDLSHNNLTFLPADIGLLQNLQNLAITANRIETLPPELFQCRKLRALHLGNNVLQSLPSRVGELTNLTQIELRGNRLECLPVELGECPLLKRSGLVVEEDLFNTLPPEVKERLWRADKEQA
Chain of UniProt Q16853 (whole entry, looked up): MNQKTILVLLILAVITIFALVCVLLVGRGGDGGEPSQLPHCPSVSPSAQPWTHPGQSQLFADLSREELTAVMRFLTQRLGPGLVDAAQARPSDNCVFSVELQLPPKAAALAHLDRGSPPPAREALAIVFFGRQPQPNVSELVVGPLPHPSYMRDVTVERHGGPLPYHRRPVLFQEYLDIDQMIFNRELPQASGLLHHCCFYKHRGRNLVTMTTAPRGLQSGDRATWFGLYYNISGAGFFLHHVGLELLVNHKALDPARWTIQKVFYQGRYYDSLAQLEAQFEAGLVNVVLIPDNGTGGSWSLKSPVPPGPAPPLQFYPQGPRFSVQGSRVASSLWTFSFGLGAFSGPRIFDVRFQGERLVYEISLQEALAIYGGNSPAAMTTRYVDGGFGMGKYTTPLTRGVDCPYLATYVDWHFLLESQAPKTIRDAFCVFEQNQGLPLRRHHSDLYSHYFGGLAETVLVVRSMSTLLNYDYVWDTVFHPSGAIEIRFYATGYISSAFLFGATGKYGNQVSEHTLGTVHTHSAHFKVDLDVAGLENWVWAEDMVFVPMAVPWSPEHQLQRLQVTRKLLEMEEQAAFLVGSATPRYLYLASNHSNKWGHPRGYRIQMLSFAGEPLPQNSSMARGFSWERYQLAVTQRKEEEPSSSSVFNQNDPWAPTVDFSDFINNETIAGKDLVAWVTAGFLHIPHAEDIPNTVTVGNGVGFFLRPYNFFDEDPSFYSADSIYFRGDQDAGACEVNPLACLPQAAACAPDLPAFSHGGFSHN
Chain of UniProt Q0VDG4 (whole entry, looked up): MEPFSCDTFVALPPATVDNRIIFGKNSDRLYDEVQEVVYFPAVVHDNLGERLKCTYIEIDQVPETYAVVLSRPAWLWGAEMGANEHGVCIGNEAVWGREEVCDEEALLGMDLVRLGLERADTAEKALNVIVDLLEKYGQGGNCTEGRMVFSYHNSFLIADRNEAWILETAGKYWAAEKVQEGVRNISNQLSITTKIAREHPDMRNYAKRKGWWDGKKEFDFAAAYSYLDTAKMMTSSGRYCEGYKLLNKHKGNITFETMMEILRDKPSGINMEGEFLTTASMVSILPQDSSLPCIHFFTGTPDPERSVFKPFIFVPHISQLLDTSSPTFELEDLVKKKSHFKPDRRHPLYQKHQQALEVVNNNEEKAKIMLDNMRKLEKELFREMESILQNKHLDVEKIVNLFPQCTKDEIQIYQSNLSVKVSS
Chain of UniProt Q6XUX3 (whole entry, looked up): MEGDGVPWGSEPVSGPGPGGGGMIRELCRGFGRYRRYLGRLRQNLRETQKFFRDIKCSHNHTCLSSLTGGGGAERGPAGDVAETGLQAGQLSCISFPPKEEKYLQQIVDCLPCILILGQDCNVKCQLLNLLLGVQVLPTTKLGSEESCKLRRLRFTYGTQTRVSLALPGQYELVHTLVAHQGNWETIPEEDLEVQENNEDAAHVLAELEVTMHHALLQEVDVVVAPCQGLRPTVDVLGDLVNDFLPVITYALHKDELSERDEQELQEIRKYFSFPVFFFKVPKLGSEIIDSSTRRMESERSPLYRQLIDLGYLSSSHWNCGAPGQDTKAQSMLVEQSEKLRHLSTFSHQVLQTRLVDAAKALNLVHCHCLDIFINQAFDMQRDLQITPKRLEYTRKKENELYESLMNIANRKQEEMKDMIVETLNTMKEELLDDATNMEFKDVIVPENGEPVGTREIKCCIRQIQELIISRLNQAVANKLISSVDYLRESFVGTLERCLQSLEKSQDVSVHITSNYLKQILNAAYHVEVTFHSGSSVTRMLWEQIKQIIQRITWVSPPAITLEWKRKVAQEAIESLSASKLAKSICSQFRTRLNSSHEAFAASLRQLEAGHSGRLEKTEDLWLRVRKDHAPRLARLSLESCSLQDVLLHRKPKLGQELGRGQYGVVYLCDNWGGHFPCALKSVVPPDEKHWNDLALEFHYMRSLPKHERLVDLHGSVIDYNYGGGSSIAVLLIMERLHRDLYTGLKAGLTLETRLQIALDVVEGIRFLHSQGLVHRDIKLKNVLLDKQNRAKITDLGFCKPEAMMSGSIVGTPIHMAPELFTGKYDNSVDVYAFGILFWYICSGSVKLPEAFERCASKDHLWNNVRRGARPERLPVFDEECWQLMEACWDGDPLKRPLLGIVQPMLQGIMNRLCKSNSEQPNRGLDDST
Chain of UniProt Q9NZQ7 (whole entry, looked up): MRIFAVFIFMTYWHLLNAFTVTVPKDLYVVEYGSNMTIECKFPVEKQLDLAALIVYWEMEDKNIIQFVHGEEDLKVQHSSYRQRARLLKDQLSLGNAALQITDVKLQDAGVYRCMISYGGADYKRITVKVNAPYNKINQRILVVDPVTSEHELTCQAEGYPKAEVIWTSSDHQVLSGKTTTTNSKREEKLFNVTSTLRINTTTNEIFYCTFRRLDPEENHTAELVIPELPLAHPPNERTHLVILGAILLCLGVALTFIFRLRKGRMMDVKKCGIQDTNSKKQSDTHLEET
Chain of UniProt P43116 (whole entry, looked up): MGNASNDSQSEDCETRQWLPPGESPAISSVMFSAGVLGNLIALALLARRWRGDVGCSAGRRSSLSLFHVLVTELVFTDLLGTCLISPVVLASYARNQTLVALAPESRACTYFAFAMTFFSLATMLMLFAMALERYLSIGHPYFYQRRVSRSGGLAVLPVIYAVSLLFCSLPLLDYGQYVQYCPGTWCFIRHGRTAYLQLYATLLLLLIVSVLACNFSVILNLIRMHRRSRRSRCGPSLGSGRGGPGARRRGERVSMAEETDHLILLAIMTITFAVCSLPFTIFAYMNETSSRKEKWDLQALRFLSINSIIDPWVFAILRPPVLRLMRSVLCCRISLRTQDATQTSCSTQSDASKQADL
Chain of UniProt P08246 (whole entry, looked up): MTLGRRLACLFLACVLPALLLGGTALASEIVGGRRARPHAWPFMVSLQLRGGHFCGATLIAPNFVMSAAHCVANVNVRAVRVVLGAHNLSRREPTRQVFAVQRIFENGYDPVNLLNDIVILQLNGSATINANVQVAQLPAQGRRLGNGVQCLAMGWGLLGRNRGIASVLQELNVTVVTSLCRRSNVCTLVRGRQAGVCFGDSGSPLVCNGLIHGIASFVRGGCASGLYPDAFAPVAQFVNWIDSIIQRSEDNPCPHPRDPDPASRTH

Compound = COc1cc2nc(N3CCCN(C)CC3)nc(NC3CCN(Cc4ccccc4)CC3)c2cc1OC; tested on = HBL-1; conditions = 0.1 µM, 120 h; measurement = viability; result = 122%
Compound = Cn1cc(-c2ccc(-c3cncc(Cl)c3N3CCC4(CCNC4=O)CC3)cc2)cn1; tested on = COLO 205; assay = gene expression, microarray, refers to: C1orf61 mRNA; conditions = concentration not given, 6 h; scale = relative to: untreated cells; measurement = log2 fold change; result = -2.7
Compound = CC(C)Oc1ccc(-c2ccc3ncc(OCC4CCNCC4)nc3c2)cc1; tested on = Protein AF-9 with DOT1L; assay = DOT1L binding, AlphaLISA; conditions = 10 µM; measurement = inhibition; result = 0 to 21%
Compound = COc1cc(C(=O)NS(=O)(=O)c2ccccc2C)ccc1Cc1cn(C)c2ccc(NC(=O)OC3CCCC3)cc12; tested on = LRRC8A/LRRC8C (Homo sapiens, UniProt Q8IWT6+Q8TDW0, Y124F/Y126F); assay = ion current, whole-cell patch clamp; system = HCT LRRC8-/- cells; conditions = 30 µM, +100 mV, Y124F/Y126F heteromers; measurement = inhibition; result = 35.4% and 91.6% and 85.8% and 55.5% and 89.4%
Compound = CC(=O)Nc1cccc(-n2c(=O)n(C3CC3)c(=O)c3c(Nc4ccc(I)cc4F)n(C)c(=O)c(C)c32)c1; tested on = NCI-H2087 (BRAF L597V); conditions = 50.00 nM, 72 h, unit not given; scale = relative to: DMSO; measurement = viability; result = 0.365
Compound = Nc1ncn([C@@H]2O[C@H](CO)[C@@H](O)[C@H]2O)c(=O)n1; tested on = HBL-1; conditions = 0.5 µM, 120 h; measurement = viability; result = 123%
Compound = Cc1ccc(C(=O)Nc2ccc3ccccc3c2)o1; tested on = Voltage-dependent L-type calcium channel subunit alpha-1C (Cacna1c, Mus musculus, UniProt Q01815); assay = ion current, whole-cell patch-clamp; conditions = 10 µM; measurement = inhibition; result = 7.38%
Compound = COc1cc(-c2cc(C(C)=O)n3ccccc23)c(OC)cc1CO; tested on = BRD9; assay = AlphaScreen; conditions = 1 µM; measurement = inhibition; result = 95%
Compound = C[C@H]1[C@H](OC(=O)CCC(=O)O)O[C@@H]2O[C@@]3(C)CC[C@H]4[C@H](C)CC[C@@H]1[C@@]24OO3; tested on = Non-structural polyprotein pORF1, helicase domain (Hepatitis E virus genotype 1, UniProt P33424); assay = ATPase activity, inhibitor, colorimetric; conditions = 156 µM, together with: ATP 100 µM; measurement = inhibition; result = 49.9%
Compound = COc1cccc(F)c1Cn1cnc(-c2ccc(F)cc2)c1-c1ccncc1; tested on = Casein kinase I isoform delta (CSNK1D, Homo sapiens, UniProt P48730); assay = inhibitor; conditions = 1 µM; measurement = inhibition; result = 72%
Compound = CC(=O)c1nn(CC(=O)N2C[C@H](F)C[C@H]2C(=O)Nc2cccc(Br)n2)c2ccc(-c3cnc(C)nc3)cc12; tested on = Neutrophil elastase (ELANE, Homo sapiens, UniProt P08246); assay = enzyme activity; system = human neutrophils; conditions = 10 µM; measurement = inhibition; result = 14.5%
Compound = CC(=O)c1cc(-c2ccccn2)c2ccccn12; tested on = BRD9; assay = AlphaScreen; conditions = 1 µM; measurement = inhibition; result = 85.4%
Compound = Cc1nc(CSc2nc(SCc3cc(F)cc(C(F)(F)F)c3)nc(=O)[nH]2)cs1; tested on = DNA topoisomerase 2-alpha (TOP2A, Homo sapiens, UniProt P11388); assay = decatenation; conditions = 7.8 µM; measurement = mean decatenated DNA; result = 95.4%
Compound = C=CCOc1ccc(/C=C/C(=O)OCC(=O)Nc2cc(C(=O)OC)ccc2C(=O)OC)cc1; tested on = uncharacterized protein (Erigeron canadensis, UniProt A0A8M0FGR5); assay = enzyme activity; conditions = 100 mg/L; measurement = inhibition; result = > 30%
Compound = NNc1ccc2ccccc2c1; tested on = Secernin-3 (Homo sapiens, UniProt Q0VDG4); assay = probe labelling, inhibitor, competitive ABPP; system = HEK-293T cell lysate; conditions = 1 µM, 30 min, 25 °C; measurement = inhibition; result = inhibited
Compound = Cc1c(COc2ccc(CN3CCCCC3C(=O)NCCCCCNC(=O)CN(C)CCCC34CCC(c5ccccc53)c3ccccc34)cc2Br)cccc1-c1ccccc1 (stereo not drawn); tested on = Programmed cell death 1 ligand 1 (CD274, Homo sapiens, UniProt Q9NZQ7); assay = binding, inhibitor, HTRF; conditions = 1 µM; measurement = inhibition; result = 13.1 ± 2.5%
Compound = C=CC(=O)N1CCC(COCC(=O)N2CCN(c3nc(-c4cnc(N)nc4C(F)F)nc(N4CCOC[C@@H]4C)n3)CC2)CC1; tested on = Dual serine/threonine and tyrosine protein kinase (DSTYK, Homo sapiens, UniProt Q6XUX3); assay = KINOMEscan; conditions = 1 µM; measurement = remaining binding; result = 100%
Compound = COc1cc(-c2cc(C(C)=O)n3ccccc23)c(OC)cc1Cn1ccnc1; tested on = BRD9; assay = AlphaScreen; conditions = 1 µM; measurement = inhibition; result = 94.2%
Compound = CN1CCN(c2cc(-c3ccncc3)c(-c3ccc4ccccc4c3)nn2)CC1; tested on = Prostaglandin E2 receptor EP2 subtype (PTGER2, Homo sapiens, UniProt P43116); assay = antagonist, FLIPR; conditions = 10 µM; measurement = inhibition; result = -8.4%
Compound = COc1ccc(-n2nc(C)c3conc3c2=O)cc1; tested on = GABAA receptor; assay = binding, radioligand displacement; conditions = concentration not given, together with: muscimol radioligand; measurement = inhibition; result = -21.5%
Compound = NC/C(=C\F)COc1cccc(Cn2c(=S)[nH]c(=O)c3[nH]cnc32)c1; tested on = Amine oxidase [copper-containing] 3 (AOC3, Homo sapiens, UniProt Q16853); assay = H2O2 production, Amplex Red; conditions = 3 µM, recombinant human enzyme; measurement = inhibition; result = 100%
Compound = CC[C@H](CO)N(CCN(N=O)[C@H](CC)CO)N=O; tested on = Salmonella typhimurium; assay = mutagenicity, Ames plate incorporation; system = TA1535; conditions = 150 µg/plate, without S9, methanol; measurement = revertant colonies per plate; result = 12.7 ± 2
Compound = C=CC[C@@H]1/C=C(\C)C[C@H](C)C[C@H](OC)[C@H]2O[C@@](O)(C(=O)C(=O)N3CCCC[C@H]3C(=O)O[C@H](/C(C)=C/[C@@H]3CC[C@@H](O)[C@H](OC)C3)[C@H](C)[C@@H](O)CC1=O)[C@H](C)C[C@@H]2OC; system = rat; conditions = intraperitoneal, 0.5 mg/kg/day, day 28; scale = relative to: vehicle; measurement = plasma renin concentration; result = increased
Compound = c1ccc(Oc2ccc(-c3cc4ncc(OCC5CCNCC5)nc4cc3-c3ccc(Oc4ccccc4)cc3)cc2)cc1; tested on = Protein AF-9 with DOT1L; assay = DOT1L binding, AlphaLISA; conditions = 10 µM; measurement = inhibition; result = 27%
Compound = CC[C@@H]1[C@H](F)C(=O)N[C@@H]1COc1nccc2cc(C(N)=O)c(OC)cc12; tested on = Serine/threonine-protein kinase N1 (PKN1, Homo sapiens, UniProt Q16512); assay = ATP-site probe binding, ActivX profiling; system = THP-1 cell lysate; conditions = 0.04 mM, Lys1 site; measurement = inhibition; result = 3.4%
Compound = c1cc(-c2ccc3ncc(OCC4CCNCC4)nc3c2)ccc1CN1CCOCC1; tested on = Protein AF-9 with DOT1L; assay = DOT1L binding, AlphaLISA; conditions = 10 µM; measurement = inhibition; result = 14.2%
Compound = CC(C)C[C@H](NC(=O)C[C@H](O)[C@H](CC(C)C)NC(=O)[C@H](Cc1c[nH]cn1)NC(=O)CNC(=O)[C@@H](NC(=O)[C@H](C)NC(=O)[C@H](Cc1c[nH]c2ccccc12)NC(=O)[C@H](CCC(N)=O)NC(=O)[C@@H](Cc1ccccc1)NC(=O)COCCOCCNC(=O)CCC(C(=O)O)N1CCN(CC(=O)O)CCN(CC(=O)O)CCN(CC(=O)O)CC1)C(C)C)C(N)=O (stereo partly drawn) [lutetium-177 labelled]; system = BALB/c nu/nu mice, muscle; conditions = intravenous, 100 pmol, 1 h, together with: PA 300 µg; measurement = tissue uptake; result = 0.1 ± 0.06 %ID/g

Some of these lines once more:
Compound = CC(=O)c1cc(-c2ccccn2)c2ccccn12; tested on = BRD9; assay = AlphaScreen; conditions = 1 µM; measurement = inhibition; result = 85.4%
Compound = Cc1nc(CSc2nc(SCc3cc(F)cc(C(F)(F)F)c3)nc(=O)[nH]2)cs1; tested on = DNA topoisomerase 2-alpha (TOP2A, Homo sapiens, UniProt P11388); assay = decatenation; conditions = 7.8 µM; measurement = mean decatenated DNA; result = 95.4%
Compound = C=CCOc1ccc(/C=C/C(=O)OCC(=O)Nc2cc(C(=O)OC)ccc2C(=O)OC)cc1; tested on = uncharacterized protein (Erigeron canadensis, UniProt A0A8M0FGR5); assay = enzyme activity; conditions = 100 mg/L; measurement = inhibition; result = > 30%
